# Earlier results that unrelated publications cite.
# Protocols differ between the studies behind these lines. ± marks the error that the study gave.
SMILES,cell line,assay,conditions,scale,endpoint,value
c1ccc2c(c1)cc1ccc3cccc4ccc2c1c34,primary human hepatocytes,"DNA damage, comet",,,lowest effective concentration,6.3 µM
COc1ccc(/C=C/c2coc3ccc(OC)cc3c2=O)cc1,human gingival fibroblasts,,,,CC50,258 ± 126 µM
CC[C@H]1OC(=O)[C@H](C)[C@@H](O[C@H]2C[C@@](C)(OC)[C@@H](O)[C@H](C)O2)[C@H](C)[C@@H](O[C@@H]2O[C@H](C)C[C@H](N(C)C)[C@H]2O)[C@](C)(OC)C[C@@H](C)C(=O)[C@H](C)[C@@H](O)[C@]1(C)O,hiPSC-derived cardiomyocytes,10% FPDc prolongation,"concentration not given, unit not given",relative to: free plasma concentration,concentration for FPDc prolongation,13
O=C1c2ccccc2-c2c1c1ccc([N+](=O)[O-])cc1c(=O)n2CCCn1ccnc1,ovarian OVCAR-3,cell growth,,,GI50,0.864 µM
COc1ccc(/C=C2\CCC/C(=C\c3ccc([N+](=O)[O-])cc3)C2=O)cc1,"HGF, HPC, HPLF normal cells",,,,CC50,> 400 µM
CCN(CC)CCNC(=O)c1c(C)[nH]c(/C=C2\C(=O)Nc3ccc(F)cc32)c1C,hiPSC-derived cardiomyocytes,contractility,72 h,,lowest effective concentration,0.81 µM
O=c1[nH]cc(F)c(=O)[nH]1,Ca9-22,,,,CC50,18 ± 7.6 µM
C#Cc1cccc(Nc2ncnc3cc(OCCOC)c(OCCOC)cc23)c1,hiPSC-derived cardiomyocytes,contractility,72 h,,lowest effective concentration,63.4 µM
COC(=O)c1ccc2c3c(n(CCCn4ccnc4)c(=O)c2c1)-c1ccccc1C3=O,NCI-60 panel mean,cell growth,,,GI50,5.37 µM
Cc1nc(Nc2ncc(C(=O)Nc3c(C)cccc3Cl)s2)cc(N2CCN(CCO)CC2)n1,hiPSC-derived cardiomyocytes,,"72 h, tested 0 to 100 µM",,beating cessation concentration,3.7 µM
COc1cc2c3c(n(CCCn4ccnc4)c(=O)c2cc1OC)-c1cc2c(cc1C3=O)OCO2,NCI-60 panel (60 lines),,mean graph midpoint,,GI50,0.079 ± 0.023 µM
COc1ccc(N(C)c2nc(C)nc3c2CC(C)C3)cc1 (racemic),SK-OV-3 MDR1-M6/6 Pgp-expressing,cell growth,,,IC50,0.0444 ± 0.0032 µM
C[C@@H](Oc1cc(-c2cnn(C3CCNCC3)c2)cnc1N)c1c(Cl)ccc(F)c1Cl,hiPSC-derived cardiomyocytes,contractility,"concentration not given, 72 h, at effective concentration",relative to: baseline,log2 fold change,0.59
COc1ccc2occ(/C=C/c3cc(OC)c(OC)c(OC)c3)c(=O)c2c1,Ca9-22,,,,CC50,13 ± 6.1 µM
N=C(N)c1ccc(OCCCCCOc2ccc(C(=N)N)cc2)cc1,A549,cytotoxicity,,,IC50,24 µM
COc1ccc2occ(/C=C/c3ccc(O)cc3)c(=O)c2c1,human gingival fibroblasts,,,,CC50,138 ± 116 µM
COc1cc2c(Nc3ccc(Br)cc3F)ncnc2cc1OCC1CCN(C)CC1,hiPSC-derived cardiomyocytes,contractility,"concentration not given, 72 h, at effective concentration",relative to: baseline,log2 fold change,2.47
O=C1C(Nc2ccc(-c3ccccc3)cc2)=CC(=O)c2ncncc21,MIA PaCa-2,cytotoxicity,,,IC50,0.9 ± 0.2 µM
O=C1c2ccccc2-c2c1c1ccc([N+](=O)[O-])cc1c(=O)n2CCCN1CCOCC1,renal SN12C,cell growth,,,GI50,0.309 µM
CCCCCCCCCCCCCCCCCO[C@@H]1O[C@H](CO)[C@@H](O)[C@H](O)[C@H]1O,B16-F10,"cytotoxicity, MTT",24 h,,EC50,38 µM
Cn1c(Cn2ccc(C(F)(F)F)c(Oc3cc(Cl)cc(C#N)c3)c2=O)n[nH]c1=O,mock-infected MT-4,,,,CC50,> 294 µM
O=C1/C(=C/c2ccc(Cl)cc2)CCC/C1=C\c1ccc([N+](=O)[O-])cc1,"HGF, HPC, HPLF normal cells",,,,CC50,289 µM
COc1cc(Nc2c(C#N)cnc3cc(OCCCN4CCN(C)CC4)c(OC)cc23)c(Cl)cc1Cl,hiPSC-derived cardiomyocytes,,"72 h, tested 0 to 100 µM",,beating cessation concentration,33 µM
O=C1c2ccccc2-c2c1c1ccc([N+](=O)[O-])cc1c(=O)n2C[C@H](O)CO,colon HCT-116,cell growth,,,GI50,0.025 µM
COc1cccc2c1C(=O)c1c(O)c3c(c(O)c1C2=O)C[C@@](O)(C(=O)CO)C[C@@H]3O[C@H]1C[C@H](N)[C@H](O)[C@H](C)O1,human gingival fibroblasts,,,,CC50,> 3.9 µM
CNC(=O)c1ccccc1Sc1ccc2c(/C=C/c3ccccn3)n[nH]c2c1,hiPSC-derived cardiomyocytes,contractility,"concentration not given, 72 h, at effective concentration",relative to: baseline,log2 fold change,0.44
O=C(O)c1ccc(C=C2SC(=S)N(c3cccc(C(F)(F)F)c3)C2=O)cc1,CFTR-null cell lines,reactive oxygen species production,30 min,,lowest effective concentration,0.2 µM
CNC(=O)c1cc(Oc2ccc(NC(=O)Nc3ccc(Cl)c(C(F)(F)F)c3)cc2)ccn1,hiPSC-derived cardiomyocytes,contractility,72 h,,lowest effective concentration,2.51 µM
Cc1ccc(OCC(=O)N(Cc2cccs2)c2ccn[nH]2)cc1,Balb/c 3T3,,"up to 100 µg/mL, with or without UVA 5 J/cm^2",,viability,< 68%

# A few entries again:
SMILES,cell line,assay,conditions,scale,endpoint,value
COc1ccc(N(C)c2nc(C)nc3c2CC(C)C3)cc1 (racemic),SK-OV-3 MDR1-M6/6 Pgp-expressing,cell growth,,,IC50,0.0444 ± 0.0032 µM
C[C@@H](Oc1cc(-c2cnn(C3CCNCC3)c2)cnc1N)c1c(Cl)ccc(F)c1Cl,hiPSC-derived cardiomyocytes,contractility,"concentration not given, 72 h, at effective concentration",relative to: baseline,log2 fold change,0.59
COc1ccc2occ(/C=C/c3cc(OC)c(OC)c(OC)c3)c(=O)c2c1,Ca9-22,,,,CC50,13 ± 6.1 µM
N=C(N)c1ccc(OCCCCCOc2ccc(C(=N)N)cc2)cc1,A549,cytotoxicity,,,IC50,24 µM
COc1ccc2occ(/C=C/c3ccc(O)cc3)c(=O)c2c1,human gingival fibroblasts,,,,CC50,138 ± 116 µM
